{"data": "Results gathered from unrelated publications", "gag-pol integrase": "Gag-Pol polyprotein, integrase (gag-pol, Human immunodeficiency virus 1, UniProt P12497)", "BCHE": "Cholinesterase (BCHE, Homo sapiens, UniProt P06276)", "note": "Compare with care: the assays were run in different laboratories. Several values in a cell are separate wells, animals, samples, runs or records. Numbers after ± are the reported error.", "chain of UniProt P06276 (whole entry, looked up)": "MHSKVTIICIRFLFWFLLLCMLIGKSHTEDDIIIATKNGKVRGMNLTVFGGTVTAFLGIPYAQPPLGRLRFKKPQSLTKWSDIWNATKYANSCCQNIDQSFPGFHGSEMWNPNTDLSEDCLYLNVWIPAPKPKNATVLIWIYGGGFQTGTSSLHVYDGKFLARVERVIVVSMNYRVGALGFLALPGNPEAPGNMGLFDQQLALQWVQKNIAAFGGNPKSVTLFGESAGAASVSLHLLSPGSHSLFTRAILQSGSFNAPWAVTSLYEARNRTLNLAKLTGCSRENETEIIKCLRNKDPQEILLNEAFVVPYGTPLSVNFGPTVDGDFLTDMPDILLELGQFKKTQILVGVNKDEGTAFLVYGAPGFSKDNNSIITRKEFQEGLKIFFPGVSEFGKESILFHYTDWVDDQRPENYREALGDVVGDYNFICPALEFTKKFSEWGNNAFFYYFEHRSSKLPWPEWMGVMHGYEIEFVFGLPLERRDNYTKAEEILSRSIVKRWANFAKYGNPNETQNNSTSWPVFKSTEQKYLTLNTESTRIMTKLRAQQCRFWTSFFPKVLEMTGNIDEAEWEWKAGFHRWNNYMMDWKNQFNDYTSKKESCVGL", "chain of UniProt O95347 (whole entry, looked up)": "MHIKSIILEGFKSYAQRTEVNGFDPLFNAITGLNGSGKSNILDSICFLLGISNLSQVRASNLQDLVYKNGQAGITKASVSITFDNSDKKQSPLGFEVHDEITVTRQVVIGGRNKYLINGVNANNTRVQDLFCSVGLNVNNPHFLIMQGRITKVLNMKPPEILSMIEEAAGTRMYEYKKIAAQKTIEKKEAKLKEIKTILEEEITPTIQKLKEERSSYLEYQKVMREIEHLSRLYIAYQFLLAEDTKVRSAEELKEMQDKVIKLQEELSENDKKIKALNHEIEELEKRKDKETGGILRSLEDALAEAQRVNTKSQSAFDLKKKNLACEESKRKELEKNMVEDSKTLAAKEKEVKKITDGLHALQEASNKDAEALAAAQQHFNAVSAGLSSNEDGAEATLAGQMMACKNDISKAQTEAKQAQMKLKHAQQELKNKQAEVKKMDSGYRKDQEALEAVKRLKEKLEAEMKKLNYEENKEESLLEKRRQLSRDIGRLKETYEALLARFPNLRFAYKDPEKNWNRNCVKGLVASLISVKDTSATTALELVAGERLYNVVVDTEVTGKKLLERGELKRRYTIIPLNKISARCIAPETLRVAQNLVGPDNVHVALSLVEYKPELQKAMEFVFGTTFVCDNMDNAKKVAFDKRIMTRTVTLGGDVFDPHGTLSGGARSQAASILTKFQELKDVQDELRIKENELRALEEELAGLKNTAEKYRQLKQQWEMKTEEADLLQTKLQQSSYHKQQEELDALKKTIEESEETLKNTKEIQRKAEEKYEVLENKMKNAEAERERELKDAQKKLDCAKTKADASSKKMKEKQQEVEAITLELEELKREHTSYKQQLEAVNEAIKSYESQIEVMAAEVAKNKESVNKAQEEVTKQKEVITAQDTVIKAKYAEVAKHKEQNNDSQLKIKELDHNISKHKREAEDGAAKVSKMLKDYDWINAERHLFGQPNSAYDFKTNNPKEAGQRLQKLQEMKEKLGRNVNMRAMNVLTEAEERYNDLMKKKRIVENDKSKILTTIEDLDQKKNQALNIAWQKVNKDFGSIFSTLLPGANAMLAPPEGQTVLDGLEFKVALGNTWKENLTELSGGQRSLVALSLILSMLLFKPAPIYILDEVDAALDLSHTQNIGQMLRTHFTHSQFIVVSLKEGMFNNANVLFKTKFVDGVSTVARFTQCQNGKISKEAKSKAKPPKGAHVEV"}
{"Structure (SMILES)": "NC(=O)c1cc[n+](CC2=C(C(=O)O)N3C(=O)[C@@H](NC(=O)[C@@H](c4ccccc4)S(=O)(=O)[O-])[C@H]3SC2)cc1", "tested on": "PBP3 Streptococcus pneumoniae", "assay": "Bocillin-FL competition", "system": "live Streptococcus pneumoniae cells", "setting": "30 min, added: Bocillin-FL 600 nM", "quantity": "kinact/KI", "value": "3300 ± 250 M⁻¹ s⁻¹"}
{"Structure (SMILES)": "O=C(N/N=C/c1c(O)ccc2ccccc12)c1n[nH]c2c1CCC2", "tested on": "gag-pol integrase", "assay": "3'-processing activity, inhibitor", "setting": "wild-type integrase", "quantity": "IC50", "value": "> 100000 nM"}
{"Structure (SMILES)": "CC1(C(=O)O)C2CCC(O2)C1(C)C(=O)O (stereo not drawn)", "tested on": "Plasmodium falciparum", "system": "7G8", "quantity": "IC50", "value": "3980 nM"}
{"Structure (SMILES)": "COc1ncccc1-c1c[nH]c(C(=O)NC2C3CC4CC(C3)CC2C4)c1 (stereo not drawn)", "tested on": "Vero", "setting": "48 h", "quantity": "IC50", "value": "11.8 µg/mL"}
{"Structure (SMILES)": "CN(C)CC[C@@H](c1ccc(Br)cc1)c1ccccn1", "tested on": "Plasmodium falciparum", "system": "W2", "quantity": "IC50", "value": "794 nM"}
{"Structure (SMILES)": "COc1cc(F)ccc1-c1c[nH]c(C(=O)NC23CC4CC(CC(C4)C2)C3)c1", "tested on": "Vero", "setting": "48 h", "quantity": "IC50", "value": "> 64 µg/mL"}
{"Structure (SMILES)": "CN(C)CCOC(C)(c1ccccc1)c1ccccn1 (stereo not drawn)", "tested on": "Plasmodium falciparum", "system": "W2", "quantity": "IC50", "value": "3980 nM"}
{"Structure (SMILES)": "CC[C@H](NC(=O)[C@H](CS(=O)(=O)CC1CC1)N[C@@H](c1ccc(F)cc1)C(F)(F)F)C(=O)C(=O)NC1CC1", "tested on": "BCHE", "assay": "inhibitor", "quantity": "IC50", "value": "2260 ± 290 nM"}
{"Structure (SMILES)": "CC(C)(CO)Cc1cc(C(C)(C)C)c(O)c(C(C)(C)C)c1", "tested on": "Plasmodium falciparum", "system": "HB3", "quantity": "IC50", "value": "6310 nM"}
{"Structure (SMILES)": "O=C1NC(=O)C(C2C3=C(CCCC3=O)Oc3ccc([N+](=O)[O-])cc32)C(=O)N1 (stereo not drawn)", "tested on": "mouse preadipocytes", "assay": "qPCR, item: aP2", "setting": "IC20, 14 days, adipogenic induction", "how to read": "reference: untreated cells", "quantity": "mRNA level", "value": "decreased"}
{"Structure (SMILES)": "CC[C@]1(O)C[C@H]2CN(CCc3c([nH]c4ccccc34)[C@@](C(=O)OC)(c3cc4c(cc3OC)N(C=O)[C@H]3[C@@](O)(C(=O)OC)[C@H](OC(C)=O)[C@]5(CC)C=CCN6CC[C@]43[C@@H]65)C2)C1", "tested on": "Plasmodium falciparum", "system": "D10", "quantity": "IC50", "value": "501 nM"}
{"Structure (SMILES)": "COc1cc(CCC[P+](c2ccccc2)(c2ccccc2)c2ccccc2)c(OC)c2c1OCO2.[I-]", "tested on": "IGROV-1", "assay": "SRB", "quantity": "LC50", "value": "-4.13 log M"}
{"Structure (SMILES)": "CC[C@H](C)[C@@H]1NC(=O)[C@@H]2CCCN2C(=O)[C@H](CC(C)C)NC(=O)[C@H](CC(C)C)NC(=O)CNC(=O)[C@@H](NC(=O)[C@@H](NC(=O)[C@H](CC(=O)O)NC(=O)CNC(=O)[C@@H](NC(=O)[C@H](C)NC(=O)CNC(=O)[C@H](CCCCN)NC(=O)[C@H](CC(C)C)NC(=O)[C@H](CC(C)C)NC(=O)[C@H](CCCCN)NC(=O)CNC(=O)[C@@H](NC(=O)[C@@H](N)CC(C)C)C(C)C)C(C)C)C(C)C)CSSC[C@@H](C(=O)O)NC1=O", "assay": "RNA-seq, item: Rilpl2", "system": "mouse, traumatic brain injury model, frontal cortex and hippocampus", "setting": "dose not given", "how to read": "reference: TBI alone", "quantity": "log2 fold change", "value": -1.28}
{"Structure (SMILES)": "CCCCC1(CCCC)CN(c2ccccc2)c2cc(SC)c(OCC(=O)N[C@@H](C(=O)NCC(=O)O)c3ccccc3)cc2S(=O)(=O)C1", "assay": "item: LDL cholesterol", "system": "human, serum", "setting": "10 mg once daily, day 7", "quantity": "serum LDL-C", "value": "90 mg/dL"}
{"Structure (SMILES)": "O=C(NC1C2CC3CC(C2)CC1C3)c1cc(-c2ccncc2F)c[nH]1 (stereo not drawn)", "tested on": "Vero", "setting": "48 h", "quantity": "IC50", "value": "45.7 µg/mL"}
{"Structure (SMILES)": "CC(=O)c1cc(O)c2ccccc2c1O", "tested on": "Zika virus", "assay": "viral replication, plaque reduction", "system": "Vero, Venus reporter", "quantity": "EC50", "value": "1400 nM"}
{"Structure (SMILES)": "C#CCN(C)[C@H](C)Cc1ccccc1", "assay": "footprint test", "system": "MPTP-induced Parkinson's disease mouse model", "setting": "10 mg/kg", "quantity": "corridor crossing time", "value": "5.62 s and 5.04 s and 5.58 s and 5.93 s and 7.98 s and 6.52 s and 3.59 s"}
{"Structure (SMILES)": "CP(=O)(O)CCCN", "tested on": "Plasmodium falciparum", "system": "D10", "quantity": "IC50", "value": "2000 nM"}
{"Structure (SMILES)": "O=C(Nc1cccnn1)N1CCN([C@@H]2CCOc3cc(C(F)(F)F)ccc32)CC1", "tested on": "thyroid hormone receptor", "assay": "binding", "setting": "20 µM", "quantity": "inhibition", "value": "-10%"}
{"Structure (SMILES)": "CC(C)(C)c1cc(C=C(C#N)C#N)cc(C(C)(C)C)c1O", "tested on": "Plasmodium falciparum", "system": "D10", "quantity": "IC50", "value": "1050 nM"}
{"Structure (SMILES)": "Nc1ccn(C[C@@H](CO)OCP(=O)(O)O)c(=O)n1", "tested on": "Fowlpox virus", "assay": "viral infection", "system": "CEF", "setting": "0.7812 µM", "how to read": "reference: untreated", "quantity": "infection", "value": "101% and 95.2% and 104%"}
{"Structure (SMILES)": "COc1c(CCC[P+](c2ccccc2)(c2ccccc2)c2ccccc2)cc2c(c1OC)OCO2.[I-]", "tested on": "SR", "assay": "SRB", "quantity": "TGI", "value": "-4.83 log M"}
{"Structure (SMILES)": "COc1ccc2c(c1)[nH]c1c(C)nccc12", "tested on": "DU-145", "assay": "bisulfite pyrosequencing, item: RASSF1A promoter CpG site 10", "setting": "10 µM, 16 h", "quantity": "CpG methylation", "value": "83.6%"}
{"Structure (SMILES)": "C[C@H]1O[C@@H](O[C@H]2CC[C@@]3(C)[C@@H](CC[C@]4(C)[C@@H]3C=C[C@]35OC[C@@]6(CCC(C)(C)C[C@H]63)[C@@H](O)C[C@]54C)[C@]2(C)CO)[C@H](O)[C@@H](O[C@@H]2O[C@H](CO)[C@@H](O)[C@H](O)[C@H]2O)[C@H]1O", "system": "Mus musculus, pair-fed, AAV8-TBG-Null vector, plasma", "setting": "oral, high dose, 5 h", "quantity": "γ-GT activity", "value": "28.5 U/L and 25.7 U/L and 22.7 U/L and 22.2 U/L and 22 U/L"}
{"Structure (SMILES)": "O=C1CC[C@@]2(O)[C@H]3Cc4ccc(O)c5c4[C@@]2(CCN3CC2CC2)[C@H]1O5", "tested on": "H+/organic cation antiporter", "assay": "cell uptake", "system": "hCMEC/D3", "quantity": "Km", "value": "92.4 µM"}
{"Structure (SMILES)": "COc1c(C)c2c(c(O)c1C/C=C(\\C)CCC(=O)O)C(=O)OC2", "tested on": "Breast cancer cell lines", "assay": "cell proliferation", "quantity": "IC50", "value": "1170 nM"}
{"Structure (SMILES)": "C[C@H]1CN(c2n[nH]c3nc(N[C@H]4CC[C@H](NS(=O)(=O)CCC(F)(F)F)CC4)ncc23)CCO1", "tested on": "Structural maintenance of chromosomes protein 2 (Homo sapiens, UniProt O95347)", "assay": "biochemical", "quantity": "IC50", "value": "≥ 20000 nM"}
{"Structure (SMILES)": "FC(F)(F)c1ccccc1/C=N/N1CCN(Cc2ccccc2)CC1", "tested on": "gag-pol integrase", "assay": "strand transfer activity, inhibitor", "setting": "wild-type integrase", "quantity": "IC50", "value": "> 100000 nM"}
{"Structure (SMILES)": "COCCn1c2nc(=O)n(-c3ccccc3)c(=O)c-2nc2ccccc21", "tested on": "Zika virus", "assay": "viral replication", "quantity": "EC50", "value": "690 nM"}
{"Structure (SMILES)": "C[C@H](C(=O)N[C@H]1COc2ccccc2[C@@H]1S(C)(=O)=O)c1ccc(F)cc1", "tested on": "5-HT4 receptor, guinea pig", "assay": "binding", "setting": "10 µM, Eurofins selectivity panel", "quantity": "inhibition", "value": "15%"}
{"Structure (SMILES)": "COC(=O)c1c(-c2cc(OC)c(OC)c(OC)c2)c2ccc(OCc3ccccn3)cc2c(=O)n1-c1ccc(N)cc1", "tested on": "Plasmodium falciparum", "system": "HB3", "quantity": "IC50", "value": "2510 nM"}
{"Structure (SMILES)": "Nc1ncc(-c2nc(N3CCOCC3)nc(N3CCOCC3)n2)c(C(F)F)n1", "tested on": "SHP77", "setting": "72 h", "quantity": "GI50", "value": "1770 nM"}
{"Structure (SMILES)": "Nc1ncnc2c1ncn2[C@@H]1O[C@@H]2COP(=O)(O)O[C@H]3[C@@H](O)[C@H](n4cnc5c(=O)[nH]cnc54)O[C@@H]3COP(=O)(O)O[C@H]2[C@H]1O", "tested on": "HFF-1", "assay": "RNA sequencing, item: Reactome R-HSA-2022090", "setting": "downregulated pathway", "how to read": "reference: Zika virus alone", "quantity": "pathway fold enrichment", "value": 10.7}
{"Structure (SMILES)": "Cc1onc(-c2c(Cl)cccc2Cl)c1C(=O)N[C@@H]1C(=O)N2[C@@H]1SC(C)(C)[C@@H]2C(=O)O", "tested on": "PBP3 Streptococcus pneumoniae", "assay": "Bocillin-FL competition", "system": "live Streptococcus pneumoniae cells", "setting": "30 min, added: Bocillin-FL 600 nM", "quantity": "kinact/KI", "value": "32000 ± 5100 M⁻¹ s⁻¹"}
{"Structure (SMILES)": "C/C=C(/C)C(=O)O[C@H]1C(C)=C2[C@H]([C@@H]1OC(=O)CCCCCCC)[C@@](C)(OC(C)=O)C[C@H](OC(=O)CCC)[C@@]1(O)[C@H]2OC(=O)[C@@]1(C)O", "tested on": "HEK-293T", "assay": "RNA-seq GSEA, item: Hallmark apoptosis", "setting": "500 nM, 6 h", "how to read": "direction not given", "quantity": "normalized enrichment score", "value": 1.73}
{"Structure (SMILES)": "CC[C@H]1CN2CC[C@H]1C[C@H]2[C@H](O)c1ccnc2ccc(OC)cc12", "tested on": "BCHE", "assay": "inhibitor", "setting": "with Triton", "quantity": "IC50", "value": "12500 ± 1590 nM"}
{"note": "Excerpt of the above:"}
{"Structure (SMILES)": "COC(=O)c1c(-c2cc(OC)c(OC)c(OC)c2)c2ccc(OCc3ccccn3)cc2c(=O)n1-c1ccc(N)cc1", "tested on": "Plasmodium falciparum", "system": "HB3", "quantity": "IC50", "value": "2510 nM"}
{"Structure (SMILES)": "Nc1ncc(-c2nc(N3CCOCC3)nc(N3CCOCC3)n2)c(C(F)F)n1", "tested on": "SHP77", "setting": "72 h", "quantity": "GI50", "value": "1770 nM"}
{"Structure (SMILES)": "Nc1ncnc2c1ncn2[C@@H]1O[C@@H]2COP(=O)(O)O[C@H]3[C@@H](O)[C@H](n4cnc5c(=O)[nH]cnc54)O[C@@H]3COP(=O)(O)O[C@H]2[C@H]1O", "tested on": "HFF-1", "assay": "RNA sequencing, item: Reactome R-HSA-2022090", "setting": "downregulated pathway", "how to read": "reference: Zika virus alone", "quantity": "pathway fold enrichment", "value": 10.7}
